Measurements from different studies.
Numbered parts are unrelated; each lists some results of a single study. “And” joins repeats or separate records; there may be more than shown.

Series 1 — effect on: enzyme activity; mode: inhibitor; method: fluorescence
Target: Amine oxidase [copper-containing] 3 (AOC3, Homo sapiens, UniProt Q16853)
Sequence of UniProt Q16853 (whole entry, looked up): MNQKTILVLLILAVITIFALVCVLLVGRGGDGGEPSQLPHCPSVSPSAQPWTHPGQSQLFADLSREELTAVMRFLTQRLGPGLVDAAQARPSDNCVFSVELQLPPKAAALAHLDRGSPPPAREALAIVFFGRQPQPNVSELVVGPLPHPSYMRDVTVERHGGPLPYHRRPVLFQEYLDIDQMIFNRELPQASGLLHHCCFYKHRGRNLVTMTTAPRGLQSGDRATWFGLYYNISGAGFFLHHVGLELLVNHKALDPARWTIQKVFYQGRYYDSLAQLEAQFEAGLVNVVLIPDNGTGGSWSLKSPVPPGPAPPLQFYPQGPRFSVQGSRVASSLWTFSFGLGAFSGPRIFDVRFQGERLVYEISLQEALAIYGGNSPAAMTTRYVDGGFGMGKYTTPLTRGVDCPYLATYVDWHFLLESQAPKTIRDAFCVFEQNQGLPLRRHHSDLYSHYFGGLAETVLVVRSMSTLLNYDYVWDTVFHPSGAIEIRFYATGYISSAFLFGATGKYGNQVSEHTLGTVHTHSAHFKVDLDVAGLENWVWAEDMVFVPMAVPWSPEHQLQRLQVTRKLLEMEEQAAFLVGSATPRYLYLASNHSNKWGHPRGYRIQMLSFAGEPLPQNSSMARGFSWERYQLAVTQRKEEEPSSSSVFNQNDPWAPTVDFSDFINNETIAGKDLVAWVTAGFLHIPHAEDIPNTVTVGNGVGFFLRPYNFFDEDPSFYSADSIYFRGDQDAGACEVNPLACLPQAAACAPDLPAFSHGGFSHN
Structure (SMILES) | IC50
CS(=O)(=O)c1ccc(OC/C(=C/F)CN)cc1 | 4 nM
NC/C(=C\F)COc1ccc(C(F)(F)F)c(Cn2c(=S)[nH]c(=O)c3[nH]cnc32)c1 | 1320 nM
NC/C(=C\F)COc1cc(Cn2c(=S)[nH]c(=O)c3[nH]ccc32)ccc1Cl | 12900 nM
C=C(CN)COc1cccc(Cn2c(=S)[nH]c(=O)c3[nH]cnc32)c1 | 1420 nM
NC/C(=C\F)COc1cc(Cn2c(=S)[nH]c(=O)c3[nH]cnc32)cc(C(F)(F)F)c1 | 1560 nM
NC/C(=C/F)COc1cccc(Cn2c(=S)[nH]c(=O)c3[nH]cnc32)c1 | 3 nM
Cc1cc2c([nH]1)c(=O)[nH]c(=S)n2Cc1cccc(OC/C(=C/F)CN)c1 | 27 nM
NC/C(=C\F)COc1cccc(Cn2c(=S)[nH]c(=O)c3[nH]ccc32)c1 | 10 nM

Series 2 — effect on: membrane potential; method: FLIPR membrane potential; cell line: CHO-BC cells; tested at: concentration not given; setting: first screen; relative to: uninhibited control
Target: Sodium-dependent neutral amino acid transporter B(0)AT1 (SLC6A19, Homo sapiens, UniProt Q695T7)
Sequence of UniProt Q695T7 (whole entry, looked up): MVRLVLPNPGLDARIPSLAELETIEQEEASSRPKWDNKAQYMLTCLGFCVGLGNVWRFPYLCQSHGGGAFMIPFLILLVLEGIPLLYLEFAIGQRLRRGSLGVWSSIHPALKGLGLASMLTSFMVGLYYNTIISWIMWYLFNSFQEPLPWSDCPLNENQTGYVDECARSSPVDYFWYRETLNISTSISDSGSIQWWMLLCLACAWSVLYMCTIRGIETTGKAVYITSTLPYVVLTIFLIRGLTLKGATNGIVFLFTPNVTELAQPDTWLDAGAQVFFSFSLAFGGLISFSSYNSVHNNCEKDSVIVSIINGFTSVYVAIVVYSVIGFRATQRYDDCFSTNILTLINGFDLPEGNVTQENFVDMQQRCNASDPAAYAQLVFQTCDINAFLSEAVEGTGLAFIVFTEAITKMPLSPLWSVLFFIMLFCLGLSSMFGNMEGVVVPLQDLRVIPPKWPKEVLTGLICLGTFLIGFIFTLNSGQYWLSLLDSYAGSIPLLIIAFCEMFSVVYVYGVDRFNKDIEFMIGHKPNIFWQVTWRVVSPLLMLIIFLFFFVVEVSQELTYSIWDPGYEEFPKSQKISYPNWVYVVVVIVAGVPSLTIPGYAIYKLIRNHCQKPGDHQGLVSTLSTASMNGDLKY
SMILES | normalised transport activity
Cc1cc(OCC(=O)NC(C)C)cc(C)c1Cl | 0.829 and 0.549 and 0.57 and 0.583 and 0.651
Cc1cc(OCC(=O)NCC(C)C)cc(C)c1Cl | 0.78 and 1.02 and 0.824 and 0.763
Cc1cc(OC(C)C(=O)NC(C)C)cc(C)c1Cl (racemic) | 0.893 and 0.814 and 0.969 and 0.913
Cc1cc(OCC(=O)NCc2ccccc2)cc(C)c1Cl | 1.05 and 1.01 and 0.96 and 1.17 and 1.13
Cc1cc(OCC(=O)NCCc2ccccc2)cc(C)c1Cl | 0.969 and 0.941 and 1.05 and 1.06 and 0.96
CCC(C)NC(=O)COc1cc(C)c(Cl)c(C)c1 (racemic) | 0.854 and 1.18 and 1.07 and 1.02
CCNC(=O)COc1cc(C)c(Cl)c(C)c1 | 0.486 and 0.483 and 0.539 and 0.431 and 0.413
Cc1cc(OCC(=O)NCCCO)cc(C)c1Cl | 0.968 and 1.2 and 1.14 and 0.875 and 1.07 and 0.922 and 1.04 and 0.942

Series 3
Structure (SMILES): Cc1ncsc1-c1ccc(C(CO)NC(=O)C2CC(O)CN2C(=O)C(C(C)C)n2cc(-c3ccc(COc4c(-c5c(C)c(F)cc6[nH]ncc56)c(C5CC5)cc5c(N6CC7CC6CN7)nc(OC6CCOCC6)nc45)cc3)nn2)cc1 (stereo not shown)
cell line | host | dose | time | tumour volume
 | mouse, lung LXFA sample A PDX | 10 mg/kg twice weekly | day 19 | 189 mm3 and 96.1 mm3 and 96.4 mm3 and 443 mm3 and 96.6 mm3 and 316 mm3 and 249 mm3 and 160 mm3
 | mouse, PK-59 xenograft | 1 mg/kg | day 0 | 269 mm3 and 294 mm3 and 334 mm3 and 252 mm3 and 318 mm3
KP-4 xenograft | mouse | 30 mg/kg twice weekly | day 7 | 226 mm3 and 207 mm3 and 223 mm3 and 268 mm3
PK-1 xenograft | mouse | 30 mg/kg twice weekly | day 10 | 135 mm3 and 142 mm3 and 160 mm3 and 165 mm3 and 95.7 mm3
 | mouse, ASPC1 xenograft | 30 mg/kg once weekly | day 0 | 193 mm3 and 222 mm3 and 184 mm3 and 176 mm3 and 241 mm3
ASPC1 xenograft | mouse | 30 mg/kg twice weekly | day 11 | 172 mm3 and 113 mm3 and 150 mm3 and 114 mm3 and 104 mm3
 | mouse, PK-59 xenograft | 1 mg/kg | day 7 | 557 mm3 and 619 mm3 and 508 mm3 and 576 mm3 and 661 mm3
GP5d xenograft | mouse | 30 mg/kg twice weekly | day 4 | 193 mm3 and 135 mm3 and 120 mm3 and 130 mm3 and 111 mm3

Mixed results
SMILES | host | route | dose | measurement | value
Cn1cc(-c2cccc(CN3CCC4(CC3)COc3c4ccc4c3CN([C@H]3CCC(=O)NC3=O)C4=O)c2)cn1 | rat | intravenous | 1 mg/kg | Vz | 2.86 L/kg and 3.49 L/kg and 3.93 L/kg
